Published values gathered from unrelated publications.
Protocols differ between the studies behind these lines. ± gives the spread as reported. In brackets after ≈: the same amount, converted by molar mass.

`O=C(Nc1cc(-c2ccc(Cl)cc2)[nH]n1)C1CCCCC1` has a remaining activity of 86% (AMPK; enzyme activity; 10 µM).
`CCOC(=O)C(=CNc1ccc(Oc2ccccc2)cc1)C(=O)OCC` has a CC50 of 76.3 ± 8.57 µM (MDA-MB-231; 72 h).
Under congener production, `CCNC(=O)CCC/C=C\C[C@@H]1[C@@H](/C=C/[C@@H](O)CCc2ccccc2)[C@H](O)C[C@@H]1O` is recorded as “increased” (Campylobacter concisus; 1 other congeners).
With `COc1cc(-c2nc3ccccc3c(=O)n2Nc2ccc([N+](=O)[O-])cc2[N+](=O)[O-])ccc1OCc1cn(CC(=O)Nc2cccc(Cl)c2)nn1` the inhibition was 57.9 ± 3.6% (mushroom tyrosinase; enzyme activity; 40 µM, with: L-DOPA).
`CCc1nn(C)c2nc(-c3ccc(C(=O)O)c(F)c3)nc(NCc3ccc(F)cc3)c12`: anti-parasitic activity “not toxic” (Cryptosporidium parvum; parasite growth, high-content microscopy; HCT-8, Iowa; concentration not given).
For `CC(C[N+](C)(C)C)OC(N)=O` (stereo not shown), congener production read “increased” (Campylobacter concisus; 1 other congeners).
Under anti-parasitic activity, `CCc1nn(C)c2nc(-c3ccc(F)c(C(=O)O)c3)nc(NCc3ccc(F)cc3)c12` is recorded as “not toxic” (Cryptosporidium parvum; parasite growth, high-content microscopy; HCT-8, Iowa; concentration not given).
`COc1cc(-c2nc3ccccc3c(=O)n2Nc2ccc([N+](=O)[O-])cc2[N+](=O)[O-])ccc1OCc1cn(CC(=O)Nc2cccc(C)c2C)nn1` has an inhibition of 55.4 ± 5.89% (mushroom tyrosinase; enzyme activity; 40 µM, with: L-DOPA).
With `Cc1ccc(-c2cc(-c3ccc(OCc4ccccc4)cc3)nc3c(N=Nc4ccc(F)cc4)c(N)nn23)cc1` the MFC/MIC ratio was 2 (Saccharomyces cerevisiae; broth microdilution; ATCC 9763).
`CCOc1c([C@H](C)n2nc(C)c3c(N)ncnc32)cc(Cl)c(F)c1[C@@H]1CNC(=O)C1` — result for “half-life geometric mean”: 8.9 h (patients with B-cell malignancies, plasma; oral, 20 mg, day 15, monotherapy).
`CCc1nn(C)c2nc(-c3ccc(C(=O)O)nc3)nc(NCc3ccc(F)cc3)c12`: anti-parasitic activity “not toxic” (Cryptosporidium parvum; parasite growth, high-content microscopy; HCT-8, Iowa; concentration not given).
The Km of `COc1cc(/C=N/NC(=S)NN=Cc2ccc([N+](=O)[O-])o2)ccc1Oc1ccnc2cc(Cl)ccc12` is reported as 4.08 mM (AKR1B1 (Homo sapiens, UniProt P15121); Lineweaver-Burk kinetics; 4.90 µg (IC60)).
With `O=C(NCc1ccc(OC(F)(F)F)cc1)c1cn(Cc2ccc(F)cc2)c2ccc(Oc3ccccc3)cc2c1=O` the CC50 was 17.8 ± 0.62 µM (MDA-MB-231; 72 h).
`Nc1nn2c(-c3ccc(Cl)cc3Cl)cc(-c3ccc(OCc4ccccc4)cc3)nc2c1N=Nc1ccc(F)cc1` gave an MBC/MIC ratio of 2 (Bacillus pumilus; broth microdilution; MTCC 2296).
With `CCc1nn(C)c2nc(-c3ccc4c(c3)COB4O)nc(NCc3ccc(F)cc3)c12` the EC50 was 0.19 µM (Cryptosporidium parvum; parasite growth; HCT-8, Iowa).
With `COc1ccc(N=Nc2c(N)nn3c(-c4ccc(C)cc4)cc(-c4ccc(OCc5ccccc5)cc4)nc23)cc1` the MBC was 31.3 µg/mL (≈ 57.9 µM) (Enterococcus faecalis; broth microdilution; MTCC 0459).
For `O=C(O)c1cn(Cc2ccc(C(F)(F)F)cc2)c2ccc(Oc3ccccc3)cc2c1=O`, the CC50 was 9.02 ± 0.28 µM (Jurkat; 72 h).
With `Nc1nn2c(-c3ccco3)cc(-c3ccc(OCc4ccccc4)cc3)nc2c1N=Nc1ccc(F)cc1` the MBC was 15.6 µg/mL (≈ 30.9 µM) (Escherichia coli; ATCC 25955).
The half-life of `COCCOc1cnc2ccn([C@H](C)c3nnc4c(F)cc(-c5cnn(C)c5)cn34)c(=O)c2c1` is reported as 6.6 h (patients, plasma; oral, 150 mg once daily, day 1).

Some of these lines once more:
With `CCc1nn(C)c2nc(-c3ccc4c(c3)COB4O)nc(NCc3ccc(F)cc3)c12` the EC50 was 0.19 µM (Cryptosporidium parvum; parasite growth; HCT-8, Iowa).
Under congener production, `CCNC(=O)CCC/C=C\C[C@@H]1[C@@H](/C=C/[C@@H](O)CCc2ccccc2)[C@H](O)C[C@@H]1O` is recorded as “increased” (Campylobacter concisus; 1 other congeners).
